Assay results of several laboratories.
A part holds a random share of what one study measured. Positions count from the first letter of the parent shown.

Sample 1
Target: Histone acetyltransferase KAT6A, winged helix 1, GST fusion (KAT6A, Homo sapiens, UniProt Q92794, residues 1-85)
Method: protein binding microarray
Molecule type: double-stranded DNA, one strand shown
Sample: in vitro
Concentration: not given
Notes: 8-mer, flanks averaged, mean of 2 arrays, mostly near background
Baseline: not given
Reading: higher = stronger binding
Measurement: E-score
Construct (chain): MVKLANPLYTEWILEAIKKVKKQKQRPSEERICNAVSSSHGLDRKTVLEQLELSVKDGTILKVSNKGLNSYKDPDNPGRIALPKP
ATTGCGAC: 0.163
CGTATACA: -0.00674
GAGTACTA: -0.0419
ATCTGATA: -0.045
GCAGCGGA: 0.112
AACACCCC: -0.128
CTTATCAA: -0.192
ACTTCATG: -0.0349
AAACATCT: -0.0863
GAAGCCGC: 0.384
TAGCGCGA: 0.33
CCTAGAAA: -0.0574
CTCGCGAA: -0.0332
CACACACA: -0.307
ACGCCATA: 0.078
AAGCTAGT: -0.166
CGGGCAGA: 0.22

Sample 2
Target: CCNA1, cyclin fold, Cln2 fusion (human)
Method: yeast growth competition, sequencing
Sample: yeast
Notes: weak parent motif
Baseline: not given
Reading: higher = stronger binding
Measurement: normalised enrichment score
Starting sequence: E2F1 docking peptide (human); PPVKRRLDLETDH; partner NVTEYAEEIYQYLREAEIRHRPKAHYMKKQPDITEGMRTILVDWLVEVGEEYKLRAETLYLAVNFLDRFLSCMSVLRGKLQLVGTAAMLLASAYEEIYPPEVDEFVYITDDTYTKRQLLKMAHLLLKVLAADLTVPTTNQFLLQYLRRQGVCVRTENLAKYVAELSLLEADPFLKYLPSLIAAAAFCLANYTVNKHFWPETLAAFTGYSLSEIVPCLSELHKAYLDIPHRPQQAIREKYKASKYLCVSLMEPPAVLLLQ
PPVKRRLDLRTDH [E10R]: 0.273
PPVKRRLDLERDH [T11R]: 0.383
PPVKRRLDLCTDH [E10C]: 0.505
LPVKRRLDLETDH [P1L]: 0.798
PPEKRRLDLETDH [V3E]: 0.527
PPVKRRPDLETDH [L7P]: 0.308
PTVKRRLDLETDH [P2T]: 0.412
PPVKRRLDLETIH [D12I]: 0.335
PPVLRRLDLETDH [K4L]: 0.236
PPVKRRLELETDH [D8E]: 0.172
PPVKRRHDLETDH [L7H]: 0.226
PPAKRRLDLETDH [V3A]: 0.749
PPVKRCLDLETDH [R6C]: 0.319
PPPKRRLDLETDH [V3P]: 0.52
PPVKRRLDFETDH [L9F]: 1.41
PPVKCRLDLETDH [R5C]: 0.535

Sample 3
Target: RNA binding protein fox-1 homolog 2, RRM domain, GST-SBP tag (RBFOX2, Homo sapiens, UniProt O43251-10, residues 100-194)
Method: RNA Bind-n-Seq
Molecule type: RNA
Sample: in vitro
Concentration: 365 nM
Notes: natural RNA segment, single round, ends assumed
Baseline: no-protein control
Reading: higher = stronger binding
Measurement: RBNS enrichment (R)
Target sequence (chain): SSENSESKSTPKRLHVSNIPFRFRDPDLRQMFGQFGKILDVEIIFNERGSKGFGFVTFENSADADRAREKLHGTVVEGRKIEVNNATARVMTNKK
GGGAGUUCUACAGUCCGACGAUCGCAGUGCGGCUUCAGGACGAAGCUCAGCCAGGGAGAGGGCGAUUAUAAUUGGGUAGUUUUGUUAAUAUUUUUUUAUCUUGUCCUUGAUAUUCCAAAAGUUACAGGAUAGAUGGAAUUCUCGGGUGCCAA: 0.83
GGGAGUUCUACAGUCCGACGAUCUCUUCUGUGUGUAGCCUGUAGCUGGUCAGCCUGCUUCUGCCCCCUCCUGAUUUCCCUAAGGAGCCUGGGAUGAUGUUGGUCAAAUGACCUAGAAACAAGGAUUCUACCUGUGGAAUUCUCGGGUGCCAA: 0.334
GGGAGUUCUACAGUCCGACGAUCCCUAUAGCCUCUGCCACCUUGUAUAAACCCUGAUGUAUGCUAAGUGUUCUGGAUAUGAAUGUAUGUACACUGAUGCUGCCCCCCUCUGUACAGCGGCUUGGCCUCUCACGUGGAAUUCUCGGGUGCCAA: 2.51
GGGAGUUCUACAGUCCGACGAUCUUUAUCAUUCUGAAUUGUAUUAUAUAUUUAAAGUGCUCAUUAAUAGAAUGAUGGAUGUAAAUUGGAUGUAAAUAUUCAGUUUAUAUAAUUAUAUCUAAUUUGUACCCUUGUGGAAUUCUCGGGUGCCAA: 0.579
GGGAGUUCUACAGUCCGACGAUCCAUGAUAGUGCCCCCAACCAGGUUGUAGCAUUGCCUUUUAAAAGAGACUCACUCACUCUUAGUUUUUAAGAACUGGAAAUUUCCCAUCCUCAGAUCCCUUAAAGGAUGAAUGGAAUUCUCGGGUGCCAA: 0.747
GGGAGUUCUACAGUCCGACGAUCAAACCCUGAUAUUUUUACUGUGAAGGUGUUUUCAGUUGUUCUUAGGAAGAACAGCUGAUAGAAAUUCAAGAUUACUAUAAUGGCUGUUAUUAUACACAGCUCUGUAAACUUGGAAUUCUCGGGUGCCAA: 0.671
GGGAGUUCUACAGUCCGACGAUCAGAAGACGUUCUAUGGAGAAGCACAGGGGGCAUCUAAUGAGAUUGUCAGGCCCUUGGACAAGAUCCAUAUUCUUAGAAAAUUAAUGAGUUCCAUCUCGUUAGGAAUUGGUUGGAAUUCUCGGGUGCCAA: 0.557
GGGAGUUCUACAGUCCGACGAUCGGUCCUUGGGCCUGCAGUCCCCUCAUACUCACCCUUCACCCAACAUAUUUUCCGGUGCUGAUAUGUUUCCAGACUCCAGCGCAACCUGGGGUGCUCUCCAGACCCGUGCAUGGAAUUCUCGGGUGCCAA: 0.72
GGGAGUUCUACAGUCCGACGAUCUUUGGCUGCAGUAUUGGUGGUAGAAUAUACUUUGAUGGAUCAUCUCUACUUCUGUAUUUAUUUAUUUAUUACUAGACCUCAACCACAGCCUUCUCCCCCUCCACUCUCUGUGGAAUUCUCGGGUGCCAA: 0.381
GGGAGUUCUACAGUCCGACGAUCGGACCUCAAGUAGACUGCUCCUUGUACUUGAAGCGCUUACCUUUUGAUUUCCUGACUUUAUGUUCUUGUGUUAUAAUGUUAUCCUAACCUCCAAAGAUAUUUGCACUGCUUGGAAUUCUCGGGUGCCAA: 0.885
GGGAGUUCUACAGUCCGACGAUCAGAGUAGUCAUAGUGUUGAAAGAACUGUACUGUUAUCCCGAGUCCCUUCCAAACAAAAAAGGCAAAGUUGUCCUAAGGUGAUCUCACUGUUGUGAAUGCCCAGUUGUAUUUGGAAUUCUCGGGUGCCAA: 0.416
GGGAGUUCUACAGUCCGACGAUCCCCGUCCACUCUGGGGCUGCCCUACUGAAUGCCCCUUUCCAGGACCUUGGUAUUCCUUCUCAUUCAGUCCCCAGCACAUCCGGCUACCCCUAGCUCUCUCCACAUUCAUUUGGAAUUCUCGGGUGCCAA: 0.741

Sample 4
Target: Ras GTPase-activating protein-binding protein 1, full length (G3BP1, Homo sapiens, UniProt Q13283)
Chain of UniProt Q13283 (whole entry, looked up): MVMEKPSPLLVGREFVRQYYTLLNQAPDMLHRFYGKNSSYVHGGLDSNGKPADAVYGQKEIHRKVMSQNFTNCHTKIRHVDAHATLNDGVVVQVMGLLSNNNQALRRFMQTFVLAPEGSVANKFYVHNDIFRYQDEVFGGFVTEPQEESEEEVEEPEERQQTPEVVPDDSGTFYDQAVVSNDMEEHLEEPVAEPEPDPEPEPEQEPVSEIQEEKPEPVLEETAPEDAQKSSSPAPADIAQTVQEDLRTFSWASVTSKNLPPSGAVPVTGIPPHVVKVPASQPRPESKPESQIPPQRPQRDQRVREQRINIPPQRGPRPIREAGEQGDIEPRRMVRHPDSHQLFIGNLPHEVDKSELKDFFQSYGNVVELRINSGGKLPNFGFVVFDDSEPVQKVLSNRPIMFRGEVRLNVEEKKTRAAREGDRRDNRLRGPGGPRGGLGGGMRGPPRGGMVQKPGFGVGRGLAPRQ
Method: RNA Bind-n-Seq
Molecule type: RNA
Sample: in vitro
Concentration: 200 nM
Notes: whole 134-nt RNA, ends assumed
With: 150 mM LiCl
Baseline: input library
Reading: higher = stronger binding
Measurement: log2 enrichment
Library: 7-deaza-guanosine replaces G
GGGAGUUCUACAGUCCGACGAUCGCAGGAAGUAAAAACAAAUGGAAAUGCUUCGGAUAGUGGCAGGGGUGGGGGUUGCUAAGGAAGGGGUGGGAUGGGAGUGGGUAAAGAGUUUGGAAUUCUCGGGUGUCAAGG: -0.435
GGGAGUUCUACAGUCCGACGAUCUAACUUUAGAGGAGGAUCUGAUGGAGAUGGCAGUGGACGUGGAUUUGGGGAUGGCUAUAAUGGGUAUGGAGGAGGACCUGGAGGUGGCAAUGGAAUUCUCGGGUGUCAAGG: -0.15
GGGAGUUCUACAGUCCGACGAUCUGUCAGUAUCAUACAUAACAGAGGAAUGCCUGAAGAAGCUGGACACAAAGCAGCAGACCAACACCCUGCUCAACCUGGUGUGGAGGGACUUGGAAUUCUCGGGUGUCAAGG: -1.21
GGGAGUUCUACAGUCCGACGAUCUAACUUUAGAGGAGGAUCUGAUGGAUAUGGCAGUGGACGUGGAUUUGGGGAUGGCUAUAAUGGGUCUGGAGGAGGACCUGGAGGUGGCAAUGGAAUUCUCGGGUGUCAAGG: -0.324
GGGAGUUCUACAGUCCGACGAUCAUUCUAUAAAUGGCAAGUAAGCCUGAAGUGAGGAUACUGCAAUUUUCGGAGAAAAGAACAGCAGCUCUUUAAGUGUUUGCAUUUUCUAUUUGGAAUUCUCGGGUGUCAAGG: -2.18
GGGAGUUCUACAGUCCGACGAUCUGGGAGGUGGAUUUUGUUUAUUUUUUUAGCUCAUUUCCAGGGGUGGGAAUUUUUUUUUAAUAUGUGUCAUGAAUAAAGUUGUUUUUUAAAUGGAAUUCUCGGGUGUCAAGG: 0.116
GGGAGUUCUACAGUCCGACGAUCAAGUCCUGUGCUACACAUCGUAUGUACCGAAUCAAAUUUAAACCCCCAAAUUUAAAAAAGUAUUAUGUUACGCCGUUCGGAUCUGCACUUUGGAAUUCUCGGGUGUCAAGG: 0.143
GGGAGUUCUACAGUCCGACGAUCACCAUGCAGGUGGGCAUCUUUGGGAAGUGGGGCAAGGGGGGGAUAGGGAGGGGGGUAACACUUUGGGAACAGGUGGUCCCAGGUCGUGUCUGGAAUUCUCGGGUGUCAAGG: 0.203
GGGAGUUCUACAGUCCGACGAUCUGGCCCUGGUGGCAUGCGGGGGGGAAGAGGUGGCCUCAUGGAUCGUGGUGGUCCCGGUGGAAUGUUCAGAGGUGGCCGUGGUGGAGACAGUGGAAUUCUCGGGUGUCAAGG: 0.386
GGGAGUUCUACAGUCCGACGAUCUGGCCCUGGUGGCAUGCGGGGAGGAAGAGGAGGCCUCAUGGAUCGUGGUGGUCCCGGUGGAAUGUUCAGAGGUGGCCGUGGUGGAGACAGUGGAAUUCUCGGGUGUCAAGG: 0.168
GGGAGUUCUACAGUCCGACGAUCGCAGGAAGUAAAAACAAAUGGAAAUGCUUCGGAUAGUGGCAGGGGUGGGGGUCGCUAAGGAAAGGGUGGGAUGGGAGUGGGUAAAGAGUUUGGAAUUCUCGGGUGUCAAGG: -0.245

Further values, each from its own experiment
PhoQ, residues 284 288 289 292 302 303 SLCLSL — fold induction (PhoP, residues 12 14 15 18 19 SGWQI (Escherichia coli, UniProt P23836); Sort-seq, item: YFP reporter; E. coli; PhoQ-PhoP variant library, with: 10 µM Mg2+; baseline: high Mg2+ state, higher = stronger signaling): 4.89

Repeated from above (sample 1):
GCAGCGGA: 0.112
AACACCCC: -0.128
CTTATCAA: -0.192
ACTTCATG: -0.0349
AAACATCT: -0.0863
GAAGCCGC: 0.384
TAGCGCGA: 0.33
